# Measurements gathered from unrelated publications.
# Parts stem from different laboratories: compare values within a part only. Positions count from the first letter of the parent shown.

# Study 1 — target: CCND3, cyclin fold, Cln2 fusion (human); method: yeast growth competition, sequencing; sample: yeast; setting: strong parent motif; reference: not given; reading: higher = stronger binding
# Starting sequence: INSM1 docking peptide (human); PKAIRKLHFEDEV; partner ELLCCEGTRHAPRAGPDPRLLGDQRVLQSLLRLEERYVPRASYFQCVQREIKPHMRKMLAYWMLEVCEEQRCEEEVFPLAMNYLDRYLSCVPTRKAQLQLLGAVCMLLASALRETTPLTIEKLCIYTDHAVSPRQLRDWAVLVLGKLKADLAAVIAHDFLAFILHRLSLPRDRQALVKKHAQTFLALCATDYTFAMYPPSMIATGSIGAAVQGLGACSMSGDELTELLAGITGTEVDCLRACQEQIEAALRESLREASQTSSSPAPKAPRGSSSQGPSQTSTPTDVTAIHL
Variant,normalised enrichment score
PKAKRKLHFEDEV [I4K],0.645
PKAIRKLLFEDEV [H8L],1.28
PKAIRKGHFEDEV [L7G],0.18
PKAFRKLHFEDEV [I4F],0.329
PKAIRKLGFEDEV [H8G],0.301
PKAIRKLHVEDEV [F9V],0.211
PHAIRKLHFEDEV [K2H],1.27
PKAIRKLHFELEV [D11L],0.193
PKANRKLHFEDEV [I4N],0.714
PKAIRKPHFEDEV [L7P],0.234
PKAQRKLHFEDEV [I4Q],1.03
PKAIRQLHFEDEV [K6Q],1.05
PKAIRKLHWEDEV [F9W],0.87
PKAIGKLHFEDEV [R5G],0.0537
PKACRKLHFEDEV [I4C],2.06
PKAIRKLHYEDEV [F9Y],0.108
PKAIRKLHFEDRV [E12R],0.698
PKAIRNLHFEDEV [K6N],0.688
PSAIRKLHFEDEV [K2S],2
PKAIRKLHFLDEV [E10L],0.369
PKAIRKLHFEDTV [E12T],0.767
PKAIRKLHFEAEV [D11A],0.519
PIAIRKLHFEDEV [K2I],0.555

# Study 2 — method: RNA Bind-n-Seq; molecule type: RNA; sample: in vitro; tested at: 365 nM; reference: no-protein control; reading: higher = stronger binding
# Target: RNA binding protein fox-1 homolog 2, RRM domain, GST-SBP tag (RBFOX2, Homo sapiens, UniProt O43251-10, residues 100-194)
# Setting: natural RNA segment, single round, ends assumed
# Target sequence (chain): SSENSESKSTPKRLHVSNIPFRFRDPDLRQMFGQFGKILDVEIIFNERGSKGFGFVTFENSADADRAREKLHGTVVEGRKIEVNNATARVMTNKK
Sequence,RBNS enrichment (R)
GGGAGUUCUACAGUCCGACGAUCCCAUCACAGGCCUGGAGGCCUAGGAGGGAAAAAAUGGUUUUGUGGGCCAGGCCCAAGGUCCCCUUGCUGUGUGCAGCCCAGGGACUUGGUACCAUGCAUCCCAGCUGCUCUGGAAUUCUCGGGUGCCAA,0.242
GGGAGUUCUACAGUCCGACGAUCACAGUGACUUGAGCUAUAGAUAGUAAAAAUCAUACGAGAGUUGAACUGAGUCAGGUUUAGGAAGCAAGUUUGGUUGCAUCAAUUAAGCAGGCUCUUUUCAAUUGACUGAUUGGAAUUCUCGGGUGCCAA,0.25
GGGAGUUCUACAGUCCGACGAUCAACUCACCAAGUGUCAGCCCAGGUAGUGAGAAACUUGCAGUAGACAUGGAGCUGGGCUCUUUUAAAUUUGUUUUGUGAAGUUUCAGCCUCUUAAUGCUUUUGUAUAGGAAUGGAAUUCUCGGGUGCCAA,0.621
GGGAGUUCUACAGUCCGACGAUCCACGGCACAUUUGGACAUUUCCAGAACUACCAUGAGAUGGUUUAGACGGGAAUUCAUGCAAAUGAGGGGUCAAAAAUGGUAUAGUGACCCCGUCCACGUCCUCCAAGCUCUGGAAUUCUCGGGUGCCAA,0.554
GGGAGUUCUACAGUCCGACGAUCCUGCUCUUCUAGAGAUCCUGAGUUCAAUUCCCAGCAACCGCAUGGUGGCUCACAACCAUCUGUAAUGGGAUCUGAUGCCCUCUUCUAGUGUGUCUGAAGACAGUGACAGUUGGAAUUCUCGGGUGCCAA,0.533
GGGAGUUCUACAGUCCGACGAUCCCCCACCAACACCAGGAAUUUAGACCUUUUCCCUGCACCACUCUCUUCAUCCUGGGGGCUCUGUUACACUAAUUUGAAUAAACUCUCCCCUUUCUUUGCAACUUCCCAGCUGGAAUUCUCGGGUGCCAA,1.41
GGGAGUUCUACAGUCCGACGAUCGCUCAUCCACCUUCACACCACUUGUGAGCUGACCCCCAGGAACAGCUUGGCUGUUCCACCAGAGCAGAGGGAAUCAUUGCUGGACUGGAUUUCUUCUGGAGGGAAGCACCUGGAAUUCUCGGGUGCCAA,0.292
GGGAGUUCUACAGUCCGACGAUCUGUGAUGGUAGUGACUUUAUGAGUUGUGAAUGGUCCUUGGCAGUCUGCCUGCUUUCUCAGAGUCUGGGCAGGCCGAUGGGAACUGUCAUCUCCUUAGGGAUGUGUGUGUUUGGAAUUCUCGGGUGCCAA,1.66
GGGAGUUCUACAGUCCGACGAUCCUACCAAUGAUUGUUUAGCUAGCAAGAAUGGUAAGACUGAGGCACCAGUGAGUGAGCAAACCACUUUAGGCCAGGAGAAUUACAUAUUCUCUAGAGGCCAAGCAUCUGAUUGGAAUUCUCGGGUGCCAA,0.417
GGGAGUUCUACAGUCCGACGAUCUCAGCUUUGUGCAAUUUGCCUUUACCUCACCAAAAAUACCUACUUUAAUAUUUCCUCCUGUGUCCUCUGAAUGUCUGGGCGAGCUUUUGGUGAGAGGGCUGGUAUGUCAUUGGAAUUCUCGGGUGCCAA,0.933
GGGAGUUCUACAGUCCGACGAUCUUUUCUGGUUGUUAUAUAGAUGCCAAAAUAGCACUUUGAUAUUUGCAAAGUGCUUUAUGCUUUUUAAUAAUUGUUAGCUGUUUCUCACAUCAUUGUGAGUUAGAUCAGUAUGGAAUUCUCGGGUGCCAA,0.355
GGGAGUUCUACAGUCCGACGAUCCCAGCCUAAAUGACAGGUCCUCUGAAAAAGAGGUGCUGAGGAGUAAUGGGGCCAGCUGAUUAAAGAAAAAGAACCCCCACACAACAGGACUGUCAGGACAGAUUGAGUUAUGGAAUUCUCGGGUGCCAA,0.861

# Study 3 — target: CREB3, bZIP domain (human); method: DHFR protein complementation; sample: yeast; reference: wild-type JUN-FOS pair; reading: higher = stronger binding
# Setting: single substitutions, most at no-binding floor
# Starting sequence: JUN, bZIP domain (human); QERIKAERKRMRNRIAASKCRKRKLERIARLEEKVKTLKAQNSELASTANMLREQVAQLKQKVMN; partner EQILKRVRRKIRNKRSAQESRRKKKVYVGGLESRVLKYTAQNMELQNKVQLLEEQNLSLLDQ
Variant,binding fitness [natural log]
I28V,-1.44
S43W,-1.51
T37R,-1.51
V56H,-1.46
E32Y,-1.24
L52D,-1.53
K39E,-1.41
S43Q,-1.37
T37E,-1.29
E33I,-1.48
T48W,-1.54
A29T,-1.44
L45H,-1.55
E32K,-1.43
M51G,-1.48
K34Q,-1.47

# Study 4 — method: protein-binding microarray; molecule type: double-stranded DNA, one strand shown; sample: in vitro; tested at: 2540 nM top; setting: 60-bp whole probe; added: salmon DNA 0.4 mg/ml; reference: random background probes; reading: higher = stronger binding; all sequences stand within: GCCTAGCAC … GTCTTGATTCGCTTGACGCTGCTG
# Target: Interferon regulatory factor 3, full length, phosphomimetic (IRF3, Homo sapiens, UniProt Q14653, residues 1-427, S386D/S396D/S398D/S402D/T404D/S405D)
# Construct (chain): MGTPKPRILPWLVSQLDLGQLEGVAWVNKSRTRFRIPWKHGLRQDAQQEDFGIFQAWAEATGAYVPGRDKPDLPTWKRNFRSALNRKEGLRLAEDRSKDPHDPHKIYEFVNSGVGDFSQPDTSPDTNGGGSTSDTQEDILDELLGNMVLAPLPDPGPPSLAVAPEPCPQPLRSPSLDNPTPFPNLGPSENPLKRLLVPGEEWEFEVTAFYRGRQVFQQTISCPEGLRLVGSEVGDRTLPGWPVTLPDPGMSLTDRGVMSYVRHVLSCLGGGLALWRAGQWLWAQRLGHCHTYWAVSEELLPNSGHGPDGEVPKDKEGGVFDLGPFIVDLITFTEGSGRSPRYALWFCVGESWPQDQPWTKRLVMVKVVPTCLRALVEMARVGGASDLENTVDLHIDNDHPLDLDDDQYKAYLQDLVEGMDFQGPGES
Sequence,fitted relative affinity [z-score]
GACGGACTGGACATTGGGGACGTGCTA,-0.744
TCAATTATGAGTCTTGAACTGTGCTAG,-0.11
TCACGTATATTCCCTAGAACTGTGCTA,0.087
TTAGAACTGGAGACTGGATTAGTGCTA,-0.64
TTCAATTTTTGCATCGTAAGGTGCTAG,0.198
TCATAGATGCCTTTCTCACTGTGCTAG,3.06
GACGGACTGGGAATGGGGACGTGCTAG,-0.626
TTAGTTATCGGTTTCGGTTAGTGCTAG,6.44
GACGGACCGCTTATCCTGACGTGCTAG,0.0439
GACGGTTTCGGCCTCGGGACGTGCTAG,3.34
CTGGAGAGACGGAGTCTCCAGTGCTAG,-0.715
TCAGCTTTGACTCTTTCACTGTGCTAG,-0.0762
GCCGGACTGGGTATCGGGACGTGCTAG,0.08
TTCTTTTTTTCTTTTATTAGGTGCTAG,3.31
GAAGATCTCAGTATCGAGACGTGCTAG,0.498
CTTGCTTTATGTGTAGGTCTGTGCTAG,0.0707
TTAGGTCTCGGTATCGTTTAGTGCTAG,1.81
TCAGTATTATTTATTGTACTGTGCTAG,0.826

# Study 5 — method: RNA Bind-n-Seq; molecule type: RNA; sample: in vitro; tested at: 20 nM; setting: 6-mer, flanks averaged, single round; added: 150 mM LiCl; reference: input library; reading: higher = stronger binding
# Target: TAR DNA-binding protein 43, full length, His tag (TARDBP, Homo sapiens, UniProt Q13148, residues 1-414)
Sequence,6-mer enrichment (R)
GUAUGG,1.52
GACUAG,0.932
AGCAUA,0.86
AGAUCC,0.843
CGACCA,0.814
ACCGCG,0.888
AGAUGG,1.04
CAAGAC,0.776
CGCGUA,0.937
CUAAAU,0.885
CUGACG,0.859
GAACAA,0.89
CUUGGA,0.933
CCGGUU,0.924
CGGUCU,0.864
AUCGCG,0.929
AAAGUA,0.912
UGCGAG,1.11
GUGCUC,0.94
AAUGAC,0.829
UUAACU,0.914
UAGCAG,0.936
UCGAUU,0.863
AUGUAU,1.22
UAUAAC,0.936

# A few entries again (study 1):
Variant,normalised enrichment score
PKAIRKLGFEDEV [H8G],0.301
PKAIRKLHVEDEV [F9V],0.211
PHAIRKLHFEDEV [K2H],1.27
PKAIRKLHFELEV [D11L],0.193
PKANRKLHFEDEV [I4N],0.714
PKAIRKPHFEDEV [L7P],0.234
PKAQRKLHFEDEV [I4Q],1.03
PKAIRQLHFEDEV [K6Q],1.05
PKAIRKLHWEDEV [F9W],0.87
PKAIGKLHFEDEV [R5G],0.0537
PKACRKLHFEDEV [I4C],2.06
PKAIRKLHYEDEV [F9Y],0.108
PKAIRKLHFEDRV [E12R],0.698
